Assay results of several laboratories.
Protocols differ between the studies behind these lines. “And” joins repeats or separate records; there may be more than shown. ± marks the error that the study gave.

`COc1ccc(C[C@@H]2NC(=O)[C@H]([C@@H](C)O)NC(=O)[C@@H]3[C@@H]4CCN3C(=O)[C@@H]3Cc5cn(c6ccc(F)cc56)CCCCCCN(Cc5ccc(cc5)CCNC(=O)[C@]5(C)CCCN5C2=O)C(=O)CCC(=O)N[C@@H](C)C(=O)N[C@H](CNC(=O)CCCCC[N+](C)(C)C)C(=O)N[C@@H](Cc2cccc(c2)CNC(=O)CO4)C(=O)N3)cc1` — result for “participants with adverse event”: 3.2% (item: Hunger; humans; concentration not given, Study-003).
`Clc1ccc(Cl)c(-c2cc(Cl)c(Cl)cc2Cl)c1`: “literature range factor” 2 (polyethylene-water partitioning; PCB compilation; relative to: maximum over minimum K).
`O=C1Nc2cc3[nH]nc(-c4ccncc4)c3cc2CN1Cc1ccccc1`: “patients with back pain” 0% (CTCAE v4.03; advanced solid tumour patients; intravenous, 7.2 mg/kg, schedules 1/2).
`CC(C)C[C@@H]1NC(=O)CNC(=O)[C@H](CC(N)=O)NC(=O)[C@H](CCCNC(=N)N)NC(=O)[C@H]([C@@H](C)O)NC(=O)[C@@H]2CSSC[C@@H]3NC(=O)[C@H]([C@@H](C)O)NC(=O)CNC(=O)CNC(=O)[C@H](C(C)C)NC(=O)[C@@H]4CSSC[C@H](NC(=O)[C@H]([C@@H](C)O)NC(=O)[C@H](CSSC[C@H](NC(=O)[C@H](C(C)C)NC(=O)[C@@H]5CCCN5C1=O)C(=O)N[C@@H](CCCCN)C(=O)N[C@@H](CCC(=O)O)C(=O)N[C@@H]([C@@H](C)O)C(=O)N4)NC(=O)CNC(=O)[C@@H]1CCCN1C(=O)[C@H]([C@@H](C)O)NC(=O)[C@H](CC(N)=O)NC3=O)C(=O)N[C@@H](CO)C(=O)N[C@@H](Cc1c[nH]c3ccccc13)C(=O)N1CCC[C@H]1C(=O)N[C@@H](C(C)C)C(=O)N2` has a remaining peptide of 53.4 ± 0.6% (HPLC; ammonium bicarbonate 0.1 M; 180 µM, 7 days, pH 9.0, 37 °C, deamidation stability).
The dose-normalised AUC(0-inf) of `Cc1nc([C@@](C)(CC2CC2)NC(=O)c2cc(OCC(F)(F)F)c(C3CC3)cn2)no1` is reported as 1410 kg·ng·h/mL/mg (C57BL/6 mice, plasma; intravenous, dose not given).
With `COc1cccc2c1CCCC2CCCN1CCN(C2CCCCC2)CC1` (stereo not shown) the AUC(0-t) was 54.3 ng·h/mL (CD-1 mouse, male, plasma; intraperitoneal, 1 mg/kg).
With `CC(C)Nc1ccnc(Nc2cccc(-c3cccnc3)c2)n1` the blood chemistry was 0.21 mg/dL (item: total bilirubin; mouse, blood; intraperitoneal, 10 mg/kg).
Under “incidence of decreased neutrophil”, `C[C@@H](NC(=O)N1C(=O)[C@H](Cc2ccnc(N)c2)[C@H]1C(=O)O)C1CCCCC1` is recorded as 0% (healthy adult Chinese volunteers; continuous intravenous infusion, 0.3 mg/kg/h, 5-day infusion, CTCAE 5.0 grading).
Under “literature range factor”, `Clc1ccc(-c2cc(Cl)c(Cl)c(Cl)c2)cc1` is recorded as 1.1 (PDMS-water partitioning; PCB compilation; relative to: maximum over minimum K).
The body weight of `N.N.[Cl][Pt][Cl]` is reported as 19.3 ± 0.7 g (nude mouse MCF7 xenograft; 5 mg/kg, day 0).
The BP change of `C[C@H]1COCCN1c1nc(NCc2cccnc2C(F)(F)F)c2cccnc2n1` is reported as 6.7% (anaesthetized rat; intravenous, 10 mg/kg; relative to: control).
Under “elimination rate constant”, `COc1cc2c(cc1OC)CN(CCc1ccc(NC(=O)c3cccc4c(=O)c5cccc(OC)c5[nH]c34)cc1)CC2` is recorded as 7.85e-06 s⁻¹ (CD-1 mouse, male, lung; intraperitoneal, 30 mg/kg).
For `CC(=O)c1c(C)c2cnc(Nc3ccc(C4CCN(CCS(C)(=O)=O)CC4)cn3)nc2n(C2CCCC2)c1=O`, “plasma stability t1/2” read greater than 6.67 h (mouse plasma).
Under “grade ≥3 thrombocytopenia”, `NC(=O)[C@H]1CCN(c2ncnc(N)c2F)C[C@@H]1N1CCC[C@@H](Nc2cc(Cl)cc(C(F)(F)F)c2)C1=O` is recorded as 20% (B-cell malignancy patients; oral, 41 mg twice daily, dose).
For `Cc1cccc(Cn2nc(C3CC3)c3c(NC(=O)c4cnc5cc(OCCN6CCN(C)CC6)ccn45)cccc32)n1`, “all-cause adverse events” read 47.4% (CTCAE v4.03, item: blood CPK increased; PD-1/PD-L1 inhibitor-refractory patients; oral, dose not given, added: pembrolizumab IV every 3 weeks).
`c1ccc2c(c1)c1cccc3ccc4cccc2c4c31` gave a log K(PDMS-water) of 5.12 ± 0.04 (fresh water; 12 (unit not given), 20 °C).
Under “enzyme contribution to clearance”, `CC(C)=CC1C(C(=O)OC(C#N)c2cccc(Oc3ccccc3)c2)C1(C)C` (stereo not shown) is recorded as 0.8% (item: CYP3A4; human, age 5 years).
For `CN(C)c1cccc2c(S(=O)(=O)N3CCN(c4ccccc4)CC3)cccc12`, “fluorescence quantum yield” read 21 ± 0.8% (toluene; relative to: coumarin 153 in ethanol).
`CCN(CCO)CCCC(C)Nc1ccnc2cc(Cl)ccc12` (stereo not shown) gave a nausea patients of 57% (newly diagnosed glioblastoma patients; oral, 400 mg/dose, grade 1, added: radiotherapy and temozolomide).
For `CC(C)(O)c1cc(Nc2cc(Oc3cn(C4CC4)nc3C3CCOCC3)ccn2)ccn1`, “treatment-emergent adverse events” read 0% (item: Cough; patients with advanced cancer; oral).
`C[C@]1(CO)Cc2ncn(-c3ccc(C#N)c(Cl)c3)c2C(=O)O1` has an AUC(0-inf) of 3.76 µM·h (human, plasma; 20 mg, first dose fasted).
`CC[C@H](C)[C@H](NC(=O)[C@H](Cc1ccccc1)NC(=O)[C@H](CCC(=O)O)NC(=O)[C@H](CCCNC(=N)N)NC(=O)[C@H](C)NC(=O)[C@H](C)NC(=O)[C@H](CCC(N)=O)NC(=O)[C@H](CCC(=O)O)NC(=O)[C@H](CCC(=O)O)NC(=O)[C@H](CC(C)C)NC(=O)[C@H](Cc1ccc(O)cc1)NC(=O)[C@H](CO)NC(=O)[C@H](CO)NC(=O)[C@@H](NC(=O)[C@H](CC(=O)O)NC(=O)[C@H](CO)NC(=O)[C@@H](NC(=O)[C@H](Cc1ccccc1)NC(=O)[C@@H](NC(=O)CNC(=O)[C@H](CCC(=O)O)NC(=O)[C@H](C)NC(=O)CCc1cnc[nH]1)[C@@H](C)O)[C@@H](C)O)C(C)C)C(=O)N[C@@H](C)C(=O)N[C@@H](Cc1c[nH]c2ccccc12)C(=O)N[C@@H](CC(C)C)C(=O)N[C@H](C(=O)N[C@@H](CCCNC(=N)N)C(=O)NCC(=O)N[C@@H](CCCNC(=N)N)C(=O)N[C@@H](CCCCNC(=O)COCCOCCNC(=O)COCCOCCNC(=O)CC[C@H](NC(=O)CCCCCCCCCCCCCCCCC(=O)O)C(=O)O)C(=O)NCC(=O)NCC(=O)N[C@@H](CO)C(=O)N[C@@H](CCSC)C(=O)N[C@H](C(=O)N[C@@H](CCCCNc1c(NCCCCCN(O)C(=O)CCC(=O)NCCCCCN(O)C(=O)CCC(=O)NCCCCCN(O)C(C)=O)c(=O)c1=O)C(=O)O)C(C)C)C(C)C` [zirconium-89 labelled] has a tissue uptake of 0.093 %ID/g and 0.099 %ID/g and 0.087 %ID/g (ex vivo gamma counting; male Sprague-Dawley rats, colon; intravenous, 5 MBq (1 nmol), 72 h).
For `CN1CC[C@@H](c2c(O)cc(O)c3c(=O)cc(-c4ccc(C(F)(F)F)cc4Cl)oc23)[C@@H]1CO`, “adverse event incidence” read 0% (item: Nausea; relapsed or refractory haematological malignancies; oral, dose not given, grade ≥3).
`CO[C@H]1C[C@@H]2CC[C@@H](C)[C@@](O)(O2)C(=O)C(=O)N2CCCC[C@H]2C(=O)O[C@H]([C@H](C)C[C@@H]2CC[C@@H](OC(=O)NCCOCCOCCOCCOCCOCCOCCOCCOCCC(=O)N3CCc4cc(Cn5nc(-c6ccc7oc(N)nc7c6)c6c(N)ncnc65)ccc4C3)[C@H](OC)C2)C[C@@H](O)[C@H](C)/C=C(\C)[C@@H](O)[C@@H](OC)C(=O)[C@H](C)C[C@H](C)/C=C/C=C/C=C/1C` — result for “anaemia TEAE incidence”: 16% (dose-escalation trial; patients with advanced solid tumours; intravenous, all doses weekly, grade ≥3).
`CN1CCN(c2ccc(Nc3nccc(-c4ccc5ccccc5c4)n3)cc2C(F)(F)F)CC1` gave a toxicity of 100% (Danio rerio embryos; 5 µM, 5 d).
For `CCC[C@@](N)(CO)CCc1ccc(OCCCCCC(C)C)cc1`, the half-life was 24.1 h (male hound dog, plasma; oral, 2.5 mg/kg, capsule, median).
`N[C@@H]1c2ccccc2OC12CCN(c1cnc3c(N4CCCc5ncccc54)n[nH]c3n1)CC2`: “TEAE leading to death” 2.8% (patients advanced metastatic solid tumours; oral, dose not given, dose escalation total).
`CCN1[C@@H](C(=O)NC23CCC(C(=O)O)(CC2)CC3)[C@H](c2cccc(Cl)c2F)[C@]2(C(=O)Nc3cc(Cl)ccc32)C12CCCCC2` — result for “grade ≥3 Neutropenia incidence”: 23.8% (patients with advanced solid tumours; oral, dose not given, all doses).
`COc1ncnn2ccc(-c3cnc4nc(C)n(Cc5nnc([C@@H](C)F)o5)c4c3)c12`: “incidence of Malaise” 21.4% (human patients; oral, dose not given, all-grade adverse drug reaction).
For `C=C(C)[C@@H]1CCC(C)=C[C@H]1c1c(O)cc(CCCCC)cc1O`, “AEs leading to withdrawal” read 0% (human; 750 mg, trial 17074, added: rifampicin 600 mg).
`O=S(=O)(Nc1ccccc1)c1ccc(NC(=S)Nc2ccccc2)cc1` — result for “blood cell fraction”: 4.58% (item: MO%; male mouse, blood; oral, 5 mg/kg daily, 14 days).
`N=c1c2c(-c3ccccc3)c(-c3ccccc3)n(Cc3ccccc3)c2ncn1[C@H]1CC[C@H](O)CC1` — result for “unchanged drug excreted in urine”: less than 1% (Sprague-Dawley rat, male, bile-duct cannulated, urine; intravenous, 1 mg/kg, 0-48 h; relative to: dose).
The concentration of `CCCC1CCC(C2CCC(c3ccc(F)c(F)c3)CC2)CC1` (stereo not shown) is reported as 0.6 ng/mL (item: compound; human pregnant women, male fetuses, cord serum; dose not given, paired maternal-cord samples, mean).
For `COc1cc2c(Oc3ccc4[nH]c(C)cc4c3F)ccnc2cc1OCC1(N)CC1`, “grade 1 or 2 Hyperthyroidism” read 0% (paediatric recurrent refractory sarcoma; 8 mg).
The HCT of `O=C(O)CCCOc1ccc(F)cc1-c1cc(-c2ccccc2C(F)(F)F)n(-c2ccccc2)n1` is reported as 41.6% and 39.9% and 42.3% and 41.7% and 40% (female Crl:CD(SD) rats; intravenous, 25 µg/kg, 14 d).
Under “adverse event Agitation”, `O=C(Nc1ccccc1)C1CCN(C(=O)Oc2cccnc2)CC1` is recorded as 0% (healthy women; oral, 60 mg, 7 days).
`COc1ncccc1-c1cnn2ccc(N3CCN(C(=O)OC(C)C)CC3)nc12` gave a drug concentration of 610 nM (mouse nerve ligation model, plasma; oral, 3 mg/kg, 120 min after last dose, repeat dosing day 4).
`CC[C@H](C)CCCCC(=O)N[C@@H](CCN)C(=O)N[C@H](C(=O)N[C@@H](CCN)C(=O)N[C@H]1CCNC(=O)[C@H]([C@@H](C)O)NC(=O)[C@H](CCN)NC(=O)[C@H](CCN)NC(=O)[C@H](CC(C)C)NC(=O)[C@@H](Cc2ccccc2)NC(=O)[C@H](CCN)NC1=O)[C@@H](C)O` — result for “AUC(0-24 h) at steady state”: 73400 ng·h/mL (critically ill patients, moderate initial AUC group, plasma; dose not given, median).
With `CC(C)C[C@@H]1NC(=O)CNC(=O)[C@H](CC(N)=O)NC(=O)[C@H](CCCNC(=N)N)NC(=O)[C@H]([C@@H](C)O)NC(=O)[C@@H]2CSSC[C@@H]3NC(=O)[C@H]([C@@H](C)O)NC(=O)CNC(=O)CNC(=O)[C@H](C(C)C)NC(=O)[C@@H]4CSSC[C@H](NC(=O)[C@H]([C@@H](C)O)NC(=O)[C@H](CSSC[C@H](NC(=O)[C@H](C(C)C)NC(=O)[C@@H]5CCCN5C1=O)C(=O)NCC(=O)N[C@@H](CCC(=O)O)C(=O)N[C@@H]([C@@H](C)O)C(=O)N4)NC(=O)CNC(=O)[C@@H]1CCCN1C(=O)[C@H](CCCCN)NC(=O)[C@H](CC(N)=O)NC3=O)C(=O)N[C@@H](CO)C(=O)N[C@@H](Cc1c[nH]c3ccccc13)C(=O)N1CCC[C@H]1C(=O)N[C@@H](C(C)C)C(=O)N2` the remaining peptide was 99.1 ± 0.2% (HPLC; water; 180 µM, 14 days, 37 °C, deamidation stability).
`c1ccc2cc3c(cc2c1)-c1cccc2cccc-3c12`: “literature range of log K” 6.05 to 6.66 log units (polyethylene-water partitioning; PAH compilation).

For quick reference, copied from above:
`c1ccc2cc3c(cc2c1)-c1cccc2cccc-3c12`: “literature range of log K” 6.05 to 6.66 log units (polyethylene-water partitioning; PAH compilation).
With `CC(C)Nc1ccnc(Nc2cccc(-c3cccnc3)c2)n1` the blood chemistry was 0.21 mg/dL (item: total bilirubin; mouse, blood; intraperitoneal, 10 mg/kg).
For `CC(=O)c1c(C)c2cnc(Nc3ccc(C4CCN(CCS(C)(=O)=O)CC4)cn3)nc2n(C2CCCC2)c1=O`, “plasma stability t1/2” read greater than 6.67 h (mouse plasma).
The BP change of `C[C@H]1COCCN1c1nc(NCc2cccnc2C(F)(F)F)c2cccnc2n1` is reported as 6.7% (anaesthetized rat; intravenous, 10 mg/kg; relative to: control).
`O=C1Nc2cc3[nH]nc(-c4ccncc4)c3cc2CN1Cc1ccccc1`: “patients with back pain” 0% (CTCAE v4.03; advanced solid tumour patients; intravenous, 7.2 mg/kg, schedules 1/2).
